Measured values of several laboratories.
Parts stem from different laboratories: compare values within a part only. “And” joins repeats or separate records; there may be more than shown.
UniProt P41240, sequence (whole entry, looked up): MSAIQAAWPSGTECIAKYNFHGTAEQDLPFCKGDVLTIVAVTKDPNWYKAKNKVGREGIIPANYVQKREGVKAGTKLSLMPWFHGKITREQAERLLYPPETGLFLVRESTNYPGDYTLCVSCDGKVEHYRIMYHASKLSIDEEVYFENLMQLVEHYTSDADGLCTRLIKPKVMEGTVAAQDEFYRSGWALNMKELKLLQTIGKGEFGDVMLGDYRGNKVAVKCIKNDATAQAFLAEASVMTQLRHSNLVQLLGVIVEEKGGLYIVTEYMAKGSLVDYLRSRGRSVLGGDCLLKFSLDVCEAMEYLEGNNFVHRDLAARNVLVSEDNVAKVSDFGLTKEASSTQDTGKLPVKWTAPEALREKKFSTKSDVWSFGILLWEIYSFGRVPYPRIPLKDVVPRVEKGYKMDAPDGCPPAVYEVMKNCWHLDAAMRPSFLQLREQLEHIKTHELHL
UniProt P04629, sequence (whole entry, looked up): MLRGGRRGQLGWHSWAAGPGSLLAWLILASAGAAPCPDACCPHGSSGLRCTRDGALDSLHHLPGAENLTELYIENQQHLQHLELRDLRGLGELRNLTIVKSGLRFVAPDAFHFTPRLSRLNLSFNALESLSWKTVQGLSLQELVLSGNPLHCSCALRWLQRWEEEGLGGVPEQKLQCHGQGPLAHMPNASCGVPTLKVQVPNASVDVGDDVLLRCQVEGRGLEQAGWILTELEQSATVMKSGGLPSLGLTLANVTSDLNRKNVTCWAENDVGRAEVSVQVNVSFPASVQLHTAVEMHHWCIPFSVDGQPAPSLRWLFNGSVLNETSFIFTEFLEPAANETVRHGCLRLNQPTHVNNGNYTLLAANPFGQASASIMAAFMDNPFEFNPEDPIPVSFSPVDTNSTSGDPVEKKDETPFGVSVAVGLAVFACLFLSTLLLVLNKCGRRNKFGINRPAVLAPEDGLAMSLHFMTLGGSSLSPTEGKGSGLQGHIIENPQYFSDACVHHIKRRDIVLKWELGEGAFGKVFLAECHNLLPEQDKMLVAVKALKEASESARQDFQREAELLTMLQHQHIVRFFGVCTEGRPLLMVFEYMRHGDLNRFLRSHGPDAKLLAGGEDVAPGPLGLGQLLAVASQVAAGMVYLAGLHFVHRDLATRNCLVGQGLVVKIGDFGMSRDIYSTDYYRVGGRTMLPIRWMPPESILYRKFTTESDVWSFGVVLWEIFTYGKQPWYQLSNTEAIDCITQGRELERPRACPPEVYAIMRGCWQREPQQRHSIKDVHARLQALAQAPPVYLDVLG
UniProt P06239, sequence (whole entry, looked up): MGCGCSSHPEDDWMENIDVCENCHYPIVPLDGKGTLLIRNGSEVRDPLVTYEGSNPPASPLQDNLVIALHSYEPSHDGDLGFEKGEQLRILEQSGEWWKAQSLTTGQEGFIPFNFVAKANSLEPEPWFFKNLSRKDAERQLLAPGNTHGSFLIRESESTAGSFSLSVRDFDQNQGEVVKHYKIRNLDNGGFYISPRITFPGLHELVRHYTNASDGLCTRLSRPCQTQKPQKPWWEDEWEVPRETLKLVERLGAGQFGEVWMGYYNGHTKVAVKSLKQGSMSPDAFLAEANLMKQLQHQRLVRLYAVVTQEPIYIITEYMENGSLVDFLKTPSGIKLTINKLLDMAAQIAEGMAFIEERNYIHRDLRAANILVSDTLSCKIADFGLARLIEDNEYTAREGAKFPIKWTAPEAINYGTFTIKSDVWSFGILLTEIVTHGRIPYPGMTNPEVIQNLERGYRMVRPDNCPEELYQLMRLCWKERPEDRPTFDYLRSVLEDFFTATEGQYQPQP
UniProt O75716, sequence (whole entry, looked up): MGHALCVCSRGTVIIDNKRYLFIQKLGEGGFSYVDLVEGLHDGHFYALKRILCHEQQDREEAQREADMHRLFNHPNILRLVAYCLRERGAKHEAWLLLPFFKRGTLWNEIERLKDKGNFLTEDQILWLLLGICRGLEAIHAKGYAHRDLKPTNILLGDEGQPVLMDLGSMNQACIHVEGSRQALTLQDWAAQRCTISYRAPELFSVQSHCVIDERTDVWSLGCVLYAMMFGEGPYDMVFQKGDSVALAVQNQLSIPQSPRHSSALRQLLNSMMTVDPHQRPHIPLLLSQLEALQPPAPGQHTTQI

Block 1
Compound: CCC1(c2cccc(-c3cn(C)nc3C)c2)C2=C(Nc3n[nH]cc31)C(F)C(C)(C)CC2=O (single isomer, unassigned)
Concentration: 1 µM
It gave 90% for remaining binding (Testis-specific serine/threonine-protein kinase 1 (TSSK1B, Homo sapiens, UniProt Q9BXA7); kinase binding, KINOMEscan; baseline: DMSO control).
The remaining binding was 91% (Mitogen-activated protein kinase 1 (MAPK1, Homo sapiens, UniProt P28482); binding, competition with immobilised ligand).
For Protein-tyrosine kinase 2-beta (PTK2B, Homo sapiens, UniProt Q14289); binding, competition with immobilised ligand: remaining binding read 100%.
It gave 99% for remaining binding (Epidermal growth factor receptor (EGFR, Homo sapiens, UniProt P00533, L858R); binding, competition with immobilised ligand).
The remaining binding was 100% (Tyrosine-protein kinase Tec (TEC, Homo sapiens, UniProt P42680); binding, competition with immobilised ligand).
It gave 97% for remaining binding (Ribosomal protein S6 kinase alpha-1, C-terminal kinase domain (RPS6KA1, Homo sapiens, UniProt Q15418); kinase binding, KINOMEscan; baseline: DMSO control).
For Ephrin type-A receptor 4 (EPHA4, Homo sapiens, UniProt P54764); kinase binding, KINOMEscan; baseline: DMSO control: remaining binding read 86%.
For Tyrosine-protein kinase CSK (CSK, Homo sapiens, UniProt P41240); kinase binding, KINOMEscan; baseline: DMSO control: remaining binding read 100%.
Calcium/calmodulin-dependent protein kinase type II subunit beta (CAMK2B, Homo sapiens, UniProt Q13554); kinase binding, KINOMEscan; baseline: DMSO control — remaining binding: 100%.
For Tyrosine-protein kinase BTK (BTK, Homo sapiens, UniProt Q06187); kinase binding, KINOMEscan; baseline: DMSO control: remaining binding read 98%.
Serine/threonine-protein kinase DCLK3 (DCLK3, Homo sapiens, UniProt Q9C098); kinase binding, KINOMEscan; baseline: DMSO control — remaining binding: 85%.
The remaining binding was 100% (Mitogen-activated protein kinase kinase kinase kinase 5 (MAP4K5, Homo sapiens, UniProt Q9Y4K4); kinase binding, KINOMEscan; baseline: DMSO control).
The remaining binding was 100% (Mitogen-activated protein kinase kinase kinase 12 (MAP3K12, Homo sapiens, UniProt Q12852); kinase binding, KINOMEscan; baseline: DMSO control).

Block 2
Compound: C[C@@H]1CN(c2ccc(-c3cc(C(=O)NCCOCCOCCOCCOCCNC(=O)/C=C/c4[nH]cc(C(=O)N[C@@H](CC(N)=O)c5ccc(F)c(Cl)c5)c4-c4ccc(Cl)cc4F)ccc3F)cc2NC(=O)c2c[nH]c(=O)cc2C(F)(F)F)C[C@H](C)N1C
Read-out: thermal unfolding
Technique: differential scanning fluorimetry
Concentration: 5.5 µM
Direction: higher = more unfolded
WDR5: WD repeat-containing protein 5 (WDR5, Homo sapiens, UniProt P61964)
DCAF1: DDB1- and CUL4-associated factor 1 (DCAF1, Homo sapiens, UniProt Q9Y4B6)
UniProt Q9Y4B6, sequence (whole entry, looked up): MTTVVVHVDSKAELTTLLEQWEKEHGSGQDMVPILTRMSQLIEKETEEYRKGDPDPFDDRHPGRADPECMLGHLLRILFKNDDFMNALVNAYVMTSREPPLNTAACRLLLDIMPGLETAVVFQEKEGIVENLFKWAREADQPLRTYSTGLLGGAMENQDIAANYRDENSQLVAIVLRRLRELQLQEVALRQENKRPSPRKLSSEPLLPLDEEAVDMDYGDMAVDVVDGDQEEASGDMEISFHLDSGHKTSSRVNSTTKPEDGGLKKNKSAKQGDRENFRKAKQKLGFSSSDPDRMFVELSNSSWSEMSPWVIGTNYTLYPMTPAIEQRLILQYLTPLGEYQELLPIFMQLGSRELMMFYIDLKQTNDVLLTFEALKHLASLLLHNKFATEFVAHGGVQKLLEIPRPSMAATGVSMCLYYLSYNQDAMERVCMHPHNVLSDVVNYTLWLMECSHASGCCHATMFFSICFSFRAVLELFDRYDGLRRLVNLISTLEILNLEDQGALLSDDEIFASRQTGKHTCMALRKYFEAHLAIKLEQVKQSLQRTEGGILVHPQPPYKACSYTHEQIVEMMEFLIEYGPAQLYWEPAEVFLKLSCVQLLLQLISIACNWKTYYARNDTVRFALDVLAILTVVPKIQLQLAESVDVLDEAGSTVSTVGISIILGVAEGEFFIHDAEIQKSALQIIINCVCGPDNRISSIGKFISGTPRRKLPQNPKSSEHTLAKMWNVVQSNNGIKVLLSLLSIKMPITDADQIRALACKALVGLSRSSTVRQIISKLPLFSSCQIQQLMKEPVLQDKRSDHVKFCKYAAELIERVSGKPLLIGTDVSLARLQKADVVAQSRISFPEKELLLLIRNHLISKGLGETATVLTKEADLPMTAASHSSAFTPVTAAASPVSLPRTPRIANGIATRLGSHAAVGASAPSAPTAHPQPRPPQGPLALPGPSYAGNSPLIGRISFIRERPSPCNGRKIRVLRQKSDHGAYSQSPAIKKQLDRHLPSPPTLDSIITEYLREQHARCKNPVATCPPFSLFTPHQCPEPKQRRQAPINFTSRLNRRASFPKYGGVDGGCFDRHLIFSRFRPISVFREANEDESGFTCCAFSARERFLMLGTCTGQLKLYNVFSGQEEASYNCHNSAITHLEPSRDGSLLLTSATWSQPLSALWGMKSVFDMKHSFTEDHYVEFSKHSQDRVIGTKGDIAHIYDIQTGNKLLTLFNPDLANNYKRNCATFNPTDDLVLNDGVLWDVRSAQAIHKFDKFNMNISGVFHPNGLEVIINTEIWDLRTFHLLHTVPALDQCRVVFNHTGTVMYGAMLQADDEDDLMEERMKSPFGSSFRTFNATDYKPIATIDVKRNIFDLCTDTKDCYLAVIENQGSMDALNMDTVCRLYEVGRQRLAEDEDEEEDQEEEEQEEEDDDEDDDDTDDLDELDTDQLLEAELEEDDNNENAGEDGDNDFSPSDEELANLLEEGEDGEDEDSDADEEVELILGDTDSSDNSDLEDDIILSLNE
It gave 14500 a.u. for “SYPRO Orange fluorescence” (WDR5; 62.81 °C).
The “SYPRO Orange fluorescence” was 20300 a.u. (DCAF1; 54.41 °C).
For WDR5; 29.2 °C: “SYPRO Orange fluorescence” read 12700 a.u.
DCAF1; 25.8 °C — “SYPRO Orange fluorescence”: 8960 a.u.
It gave 58800 a.u. for “SYPRO Orange fluorescence” (DCAF1; 67.21 °C).
The “SYPRO Orange fluorescence” was 15500 a.u. (WDR5; 45.8 °C).
DCAF1; 31.2 °C — “SYPRO Orange fluorescence”: 9660 a.u.
WDR5; 30.2 °C — “SYPRO Orange fluorescence”: 12700 a.u.

Block 3
SMILES: CN(C1COC1)C(C)(C)/C=C(\C#N)C(=O)N1CCC[C@H]1Cn1nc(-c2ccc(Oc3ccccc3)cc2F)c2c(N)ncnc21
Read-out: kinase activity
The inhibition was 4% (Dual specificity protein kinase CLK2 (CLK2, Homo sapiens, UniProt P49760); 0.1 µM).
The inhibition was 9% (Serine/threonine-protein kinase 16 (STK16, Homo sapiens, UniProt O75716); 1 µM).
SRSF protein kinase 3 (SRPK3, Homo sapiens, UniProt Q9UPE1); 1 µM — inhibition: -2%.
Tyrosine-protein kinase Lck (LCK, Homo sapiens, UniProt P06239); 1 µM — inhibition: 65%.
RAC-beta serine/threonine-protein kinase (AKT2, Homo sapiens, UniProt P31751); 1 µM — inhibition: -2%.
For Tyrosine-protein kinase CSK (CSK, Homo sapiens, UniProt P41240); 1 µM: inhibition read 33%.
The inhibition was 4% (Serine/threonine-protein kinase Sgk3 (SGK3, Homo sapiens, UniProt Q96BR1); 1 µM).
For Tyrosine-protein kinase Fer (FER, Homo sapiens, UniProt P16591); 1 µM: inhibition read 3%.
It gave 95% for inhibition (Tyrosine-protein kinase TXK (TXK, Homo sapiens, UniProt P42681); 1 µM).
For Phosphorylase b kinase gamma catalytic chain, skeletal muscle/heart isoform (PHKG1, Homo sapiens, UniProt Q16816); 1 µM: inhibition read 1%.
High affinity nerve growth factor receptor (NTRK1, Homo sapiens, UniProt P04629); 0.1 µM — inhibition: 7%.
For Phosphorylase b kinase gamma catalytic chain, liver/testis isoform (PHKG2, Homo sapiens, UniProt P15735); 0.1 µM: inhibition read 6%.
Ephrin type-A receptor 5 (EPHA5, Homo sapiens, UniProt P54756); 0.1 µM — inhibition: 3%.
For Glycogen synthase kinase-3 beta (GSK3B, Homo sapiens, UniProt P49841); 1 µM: inhibition read 3%.
It gave 2% for inhibition (Hepatocyte growth factor receptor (MET, Homo sapiens, UniProt P08581); 0.1 µM).

Block 4
Structure (SMILES): Cc1cc2c([nH]1)c(=O)[nH]c(=S)n2Cc1cccc(OC/C(=C/F)CN)c1
Read-out: enzyme activity
Mode: inhibitor
Technique: fluorescence
AOC3: Amine oxidase [copper-containing] 3 (AOC3, Homo sapiens, UniProt Q16853)
UniProt Q16853, sequence (whole entry, looked up): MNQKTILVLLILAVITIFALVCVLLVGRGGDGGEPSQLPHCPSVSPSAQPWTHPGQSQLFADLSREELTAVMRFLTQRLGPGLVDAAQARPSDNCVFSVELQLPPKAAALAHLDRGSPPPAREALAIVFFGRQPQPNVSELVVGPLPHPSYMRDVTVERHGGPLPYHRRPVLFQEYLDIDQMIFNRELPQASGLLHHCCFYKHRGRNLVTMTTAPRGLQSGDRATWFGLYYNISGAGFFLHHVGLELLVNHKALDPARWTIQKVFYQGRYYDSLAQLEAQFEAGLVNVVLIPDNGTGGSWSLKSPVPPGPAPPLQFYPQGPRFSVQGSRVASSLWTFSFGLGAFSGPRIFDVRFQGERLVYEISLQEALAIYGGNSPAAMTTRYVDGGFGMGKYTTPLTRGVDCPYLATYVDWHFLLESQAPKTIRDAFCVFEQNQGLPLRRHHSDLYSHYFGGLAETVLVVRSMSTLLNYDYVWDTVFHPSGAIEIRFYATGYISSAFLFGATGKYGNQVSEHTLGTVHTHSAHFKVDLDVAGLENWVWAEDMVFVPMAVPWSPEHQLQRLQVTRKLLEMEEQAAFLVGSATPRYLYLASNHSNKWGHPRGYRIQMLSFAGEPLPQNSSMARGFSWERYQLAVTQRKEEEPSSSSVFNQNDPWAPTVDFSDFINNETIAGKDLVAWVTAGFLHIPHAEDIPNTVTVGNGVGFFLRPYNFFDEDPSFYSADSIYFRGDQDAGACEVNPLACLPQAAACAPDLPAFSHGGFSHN
MPO: Myeloperoxidase (MPO, Homo sapiens, UniProt P05164)
UniProt P05164, sequence (whole entry, looked up): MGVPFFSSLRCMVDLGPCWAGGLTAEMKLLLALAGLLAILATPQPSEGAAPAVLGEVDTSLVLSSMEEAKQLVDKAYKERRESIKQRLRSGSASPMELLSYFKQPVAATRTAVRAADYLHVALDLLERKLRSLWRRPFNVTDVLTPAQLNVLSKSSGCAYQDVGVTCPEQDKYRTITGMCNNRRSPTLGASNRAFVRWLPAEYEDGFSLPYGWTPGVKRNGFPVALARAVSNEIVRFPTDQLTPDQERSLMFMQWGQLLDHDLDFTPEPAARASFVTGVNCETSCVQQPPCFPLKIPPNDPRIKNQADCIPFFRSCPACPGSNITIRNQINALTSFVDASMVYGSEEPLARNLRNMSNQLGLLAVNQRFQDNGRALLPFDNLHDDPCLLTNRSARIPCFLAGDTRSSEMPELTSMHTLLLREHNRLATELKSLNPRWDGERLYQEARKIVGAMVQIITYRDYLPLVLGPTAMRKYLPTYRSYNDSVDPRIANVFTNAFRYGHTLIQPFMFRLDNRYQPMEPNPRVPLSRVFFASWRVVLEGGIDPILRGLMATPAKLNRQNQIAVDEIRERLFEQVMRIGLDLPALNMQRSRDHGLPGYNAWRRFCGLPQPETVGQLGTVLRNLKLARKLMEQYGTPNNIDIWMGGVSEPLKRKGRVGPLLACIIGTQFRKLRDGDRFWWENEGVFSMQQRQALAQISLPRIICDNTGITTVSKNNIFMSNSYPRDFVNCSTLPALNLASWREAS
The inhibition was 99.9% and 100% (AOC3; 30 µM).
AOC3; 0.3704 µM — inhibition: 96.9% and 96.8%.
The inhibition was 89.3% and 88.4% (AOC3; 0.1235 µM).
The inhibition was 80.3% and 86.2% and 79% (MPO; 5 µM).
For AOC3; 10 µM: inhibition read 100% and 99.8%.
For AOC3; 41.2 nM: inhibition read 62.7% and 64.4%.
It gave -1.97% and 1.08% for inhibition (AOC3; 500 pM).
The inhibition was 45.7% and 26.8% and 25% (MPO; 0.5556 µM).

For quick reference, copied from above (block 1):
For Ephrin type-A receptor 4 (EPHA4, Homo sapiens, UniProt P54764); kinase binding, KINOMEscan; baseline: DMSO control: remaining binding read 86%.
For Protein-tyrosine kinase 2-beta (PTK2B, Homo sapiens, UniProt Q14289); binding, competition with immobilised ligand: remaining binding read 100%.
It gave 99% for remaining binding (Epidermal growth factor receptor (EGFR, Homo sapiens, UniProt P00533, L858R); binding, competition with immobilised ligand).
It gave 90% for remaining binding (Testis-specific serine/threonine-protein kinase 1 (TSSK1B, Homo sapiens, UniProt Q9BXA7); kinase binding, KINOMEscan; baseline: DMSO control).
